Experimental data from different studies.
Each numbered part is a random draw from the data of one study; scales do not carry over between parts.

Block 1
Target: RNA binding protein fox-1 homolog 2, RRM domain, GST-SBP tag (RBFOX2, Homo sapiens, UniProt O43251-10, residues 100-194)
Method: RNA Bind-n-Seq
Molecule type: RNA
Matrix: in vitro
Concentration: 365 nM
Setting: natural RNA segment, single round, ends assumed
Relative to: no-protein control
Direction: higher = stronger binding
Constant ends, left off below: GGGAGUUCUACAGUCCGACGAUC … UGGAAUUCUCGGGUGCCAA
Target sequence (chain): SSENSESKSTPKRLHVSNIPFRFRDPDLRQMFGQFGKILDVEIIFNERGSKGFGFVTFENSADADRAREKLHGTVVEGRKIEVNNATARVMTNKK
| Strand | RBNS enrichment (R) |
| --- | --- |
| UGGUCACUAGCUGAUCUGUGAUGGCGUCCCUUCCCCCAUUGAUUUUCUGUGUUUGAAGUAUGUGCAUAUGUGCUUUACAGAAUAAAACAUCUGGAUUUACUUGGUUUGCC | 0.382 |
| UCAGGAGAGAGCAGGUCUGAGGAAUAUGCAAAACUGUAGUUACUGUGUGGGCCAUUGACUGCCUUGACCAGUAGAAGGGAUAACUAUUACACAGAUAGGCAGGCAGGGUG | 0.63 |
| GGCUGUCUCAGCACAAUACUCGACAUAACUGCAGAGCUGAUGUGGCUCAGGCACCCUGGUUUUAAUCCCUUGAGGAUCUGGCAAUUGGCUUACGUAAAGAAAGGGUCACC | 0.367 |
| AUGUUCUGUUUUUAUAACCUACCAAAAGGAAACUAGAGGCUUCUUGGUGAAGAGCAUUUUUGUGAAGUGGGUUCUGCAAGGAGCCUAUAAAGCCAAGGGUGGUGUCCAUU | 0.338 |
| GAGGGAGGGUUUAUCACUGCUUAACUUCAUCUUCAUGAAAUGAAACUUUGUAACUUAUUGUAGUUAGAAAUUGUAACUUUGAUAUUGAAUUCUCUUGCCUUCAACAAGCA | 0.625 |
| AACGAUUUUUAAAUAACGUCUGUGCCUCCACUGGUUGAGGGUGGAACCUCCAGGCAGGAACCGGCUCGCCACCCUCUGCCCGGUAAGGGCUGCCCAAGAAAGCAUUACCC | 0.378 |
| ACUGUUUCAGUAGCCAAUCCUCUUUCUUAGUAUAUGAAAGGACAGGGAUUUUUGUUCUUGUUGUUCUCGUUGUUGUUUUAAGUUUACUGGGGAAAGUGCAUUUGGCCAAA | 1.27 |
| CUCAUUUAAUUUUUAUUAAACAUGCUCAGUACCUGUGUUGAGAAAAGGCUUUCUUUAUCCUAAAGAUUAUUACCUUUUUAAAGUGCUCUUAUAUUUUCAUGAGUUUUUAU | 0.484 |
| ACCCUCAGGUCUCCUACACUGGCCCCAUUUUACUUUGGGGUCCAAGGACAGGAUGGUCAACAGGGCAGGGUGGACAGCGUGCCAGCGCCGCGCAGGGCCACCUCCCUGGG | 0.242 |

Block 2
Target: Prothrombin, mature alpha-thrombin (F2, Homo sapiens, UniProt P00734)
Method: aptamer microarray, sandwich
Molecule type: DNA with 2'F-ANA
Matrix: in vitro
Concentration: 200 nM
Setting: whole 15-mer aptamer, many near background
With: Cy3 exosite-II aptamer, 400 nM
Direction: higher = stronger binding
Strand: GGTTGGTGTGGTTGG
| Modification | mean fluorescence intensity [a.u.] |
| --- | --- |
| 2'F-ANA at 1 3 4 5 7 8 9 10 13 14 | 47.5 |
| 2'F-ANA at 1 3 4 5 6 10 11 12 15 | 53.8 |
| 2'F-ANA at 1 3 4 9 11 12 13 15 | 258 |
| 2'F-ANA at 1 2 7 8 11 12 13 14 | 67 |
| 2'F-ANA at 4 8 9 10 11 12 14 15 | 86.9 |
| 2'F-ANA at 1 4 6 7 8 9 10 11 13 14 | 48.5 |
| 2'F-ANA at 1 2 3 4 7 8 12 13 15 | 392 |
| 2'F-ANA at 2 3 10 14 | 346 |
| 2'F-ANA at 1 3 4 6 9 10 11 13 14 | 54.4 |
| 2'F-ANA at 1 3 4 6 8 9 12 13 15 | 261 |
| 2'F-ANA at 1 4 6 11 13 14 | 48.5 |
| 2'F-ANA at 2 4 7 10 11 12 13 14 15 | 64.3 |
| 2'F-ANA at 4 6 8 9 11 13 | 162 |
| 2'F-ANA at 2 3 4 5 7 8 10 11 12 14 15 | 51.4 |
| 2'F-ANA at 3 7 8 9 10 13 14 15 | 473 |
| 2'F-ANA at 1 2 4 5 8 9 10 12 13 14 | 45.1 |
| 2'F-ANA at 2 4 7 9 10 12 14 | 127 |
| 2'F-ANA at 3 6 8 9 10 11 14 15 | 333 |
| 2'F-ANA at 2 4 5 6 7 8 11 13 14 15 | 51.6 |
| 2'F-ANA at 1 5 8 11 14 | 47.6 |
| 2'F-ANA at 2 3 4 6 11 12 13 15 | 543 |
| 2'F-ANA at 5 6 8 9 13 15 | 61.9 |
| 2'F-ANA at 1 3 5 9 13 14 | 87.9 |
| 2'F-ANA at 3 4 7 9 10 15 | 280 |

Block 3
Target: Interferon regulatory factor 3, full length, phosphomimetic (IRF3, Homo sapiens, UniProt Q14653, residues 1-427, S386D/S396D/S398D/S402D/T404D/S405D)
Chain of UniProt Q14653 (whole entry, unmodified, looked up): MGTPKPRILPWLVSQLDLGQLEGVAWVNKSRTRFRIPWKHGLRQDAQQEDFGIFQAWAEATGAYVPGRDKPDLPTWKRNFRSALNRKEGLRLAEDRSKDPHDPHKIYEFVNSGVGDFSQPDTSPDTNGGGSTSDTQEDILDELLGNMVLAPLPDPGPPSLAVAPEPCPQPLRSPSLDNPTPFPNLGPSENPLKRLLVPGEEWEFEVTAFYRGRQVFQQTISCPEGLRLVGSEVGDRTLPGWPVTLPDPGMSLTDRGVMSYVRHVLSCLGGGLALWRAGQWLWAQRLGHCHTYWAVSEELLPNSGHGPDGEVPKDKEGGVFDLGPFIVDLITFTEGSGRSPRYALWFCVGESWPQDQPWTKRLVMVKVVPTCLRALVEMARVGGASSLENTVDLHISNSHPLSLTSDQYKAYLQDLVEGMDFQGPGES
Method: protein-binding microarray
Molecule type: double-stranded DNA, one strand shown
Matrix: in vitro
Concentration: 2540 nM top
Setting: 60-bp whole probe
With: salmon DNA 0.4 mg/ml
Relative to: random background probes
Direction: higher = stronger binding
Constant ends, left off below: GCCTAGCAC … GTCTTGATTCGCTTGACGCTGCTG
| Strand | fitted relative affinity [z-score] |
| --- | --- |
| GACGGACTGCCTATCCTGACGTGCTAG | -0.31 |
| TTAGGTCTCCTTCTCCTTTAGTGCTAG | 4.03 |
| TTAGAACTGAGTCGCGATTAGTGCTAG | -0.385 |
| GACGGTTTCATACTGCTGACGTGCTAG | 3.45 |
| TTATGTATCGACTATCGGTTAGTGCTA | 0.67 |
| TTAGGTATCCATCTCCTTTAGTGCTAG | 5.02 |
| GACGGGCTGGGTATCGGGACGTGCTAG | -0.622 |
| TTGGGTCTCGGACTGGGTTAGTGCTAG | -1.03 |
| GACGGTCCCGGTTTCGGGACGTGCTAG | 2.71 |
| TTAGGTATCGACTATCGGTCAGTGCTA | 0.334 |
| CTGCCTAACATGCTTCGAGATGTGCTA | -0.0549 |
| GACGAACTGGGGTTACGAGACGTGCTA | -0.492 |
| GACCGTTTCGGGACTGGGGACGTGCTA | 4.47 |
| TTAGATTTCAGTTTCAATTAGTGCTAG | 3.97 |
| TTAGGACTGGGGATTGGGTTAGTGCTA | -0.792 |
| ATAGTGATAGCTCTGGTAAAGTGCTAG | -0.562 |
| GGCGATCTCAGTCTCGAGACGTGCTAG | 0.324 |
| GACGGTATCGGACTCGGGACGTGCTAG | 2.8 |
| GACGGTATCGTACTGGGGACGTGCTAG | 1.13 |
| TCATTTCTCTTTCACTGACTGTGCTAG | 3.87 |
| GACGGTTTCGGACTGAGGACGTGCTAG | 4.74 |
| TCAAGGTTTTCTCTGGTACTGTGCTAG | -0.431 |
| TCACATATACACTGTGTAACTGTGCTA | 0.443 |

Block 4
Target: RING finger protein unkempt homolog, zinc fingers 1-6, GST-SBP tag (UNK, Homo sapiens, UniProt Q9C0B0, residues 30-357)
Method: RNA Bind-n-Seq
Molecule type: RNA
Matrix: in vitro
Concentration: not given
Setting: RNA with constant flanks, human and mouse sites, ends assumed
Relative to: input RNA pool
Direction: higher = stronger binding
Constant ends, left off below: GGGAGUUCUACAGUCCGACGAUC … CAACAGAGGAUUGAGCAUCA
Residues (chain): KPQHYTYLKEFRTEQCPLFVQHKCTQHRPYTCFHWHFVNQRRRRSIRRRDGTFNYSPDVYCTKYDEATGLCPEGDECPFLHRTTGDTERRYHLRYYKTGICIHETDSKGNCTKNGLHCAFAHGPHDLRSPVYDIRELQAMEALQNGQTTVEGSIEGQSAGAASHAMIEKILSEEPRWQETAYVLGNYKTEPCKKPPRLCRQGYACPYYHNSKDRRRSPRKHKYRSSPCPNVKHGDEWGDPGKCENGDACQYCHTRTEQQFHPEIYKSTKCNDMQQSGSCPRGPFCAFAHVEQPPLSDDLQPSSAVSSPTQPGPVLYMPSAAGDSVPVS
| Strand | bound/input enrichment |
| --- | --- |
| AGCCAGGGGAAGCCUGGCAGUCCGGAGCCCGAGACAGAGACCGUUUCUUCAGUUCAUGAGAGCCAUGAAAACGAAAGGAUUCCUCGACCACUCAGCCCAACAAAAUUACUGCCUUUCUUG | 0.0937 ratio |
| CUGAUGGGACUACUGGAAUCAGGCUUGGUUCAUUUUAAUGAAAAUCACAUAAAGUCAUUUAUGAGACAGCUCAUGGAGGGUCUGGAUUAUUGUCAUAAGAAGAACUUUUUGCAUAGAGAU | 0.32 ratio |
| UUAGUAUCCAAUUUCGAUCAGCAGCAGCUUGCUAACUUCUGCAGGAUCCUGGCUGUCACCAUUUCAGAGAUGGACACGGGGAAUGACGACAAACACACGCUUCUUGCCAAAAAUGCUCAG | 0.638 ratio |
| AGGCGCAAAGCAGCAAAUGUCACGUUACUCACCUCACUGGUAGAAGGGGAAGCUGUUCACUUAGCUCGGGAUUUCGGGUAUAUUUGUGAAACAGAGUUUCCUGCUAAAGCCGUGUCCGAG | 0.117 ratio |
| UCUUUAUAGAAUGAGAACCUUUUUUGGACUAGCUUUUUUAUUAAAAUGGCUCAAUUUGUGUUGAUAAGGAUUGCAUUAAUAUUUAAUAGUGCUUGCUUUUCCUCUGGGCACACCAUUUUG | 11.2 ratio |
| UUAGGAAAAGCUACAAAUAACACUUACUUUGAAUCCUGCUGUCAAAUGUCUGCAUCAAGAUAGCACCCCUUUGUGGGAGGCCCUGAGUAUCUUCUCUUCCUCUACUGCCUAACUGUUGGU | 0.627 ratio |
| UGAGACCGACGUGUUUGUUGUUGGAACCGAAAGAGGGCGUGCUUUUGUCAAUACCAGAAAAGAUUUCCAAAAAGACUUUGUGAAGUAUUGUGUUGAAGAAGAAGAAAAGGCCGCCGAGAU | 0.181 ratio |
| AGGCCAAAUGAUUUCAGUGCCAAUCAGUGCCAAAAGAAAAUGAUGGAAGUGCAGAAGAAGUCUUUUGAAGAGAAAUAUGAUACCUUCAUGACGAUUUGCCAAAACUUUGAACCAGUUUUC | 0.162 ratio |
| AGGAGGAGGUUUGCAUCACGGAUCAUAGAUAGCCUGUUUAAUACAGUGACCGAUAAGAAGAUAGCUAUCUUGGGGUUUGCAUUCAAAAAGGAUACUGGUGAUACCAGAGAAUCCUCCAGU | 0.405 ratio |
| GAGCACAUGAAGGAGUCGACAUUGGAAGCCAUCGGUUAUAUUUGCCAAGAUAUAGACCCAGAGCAGCUACAAGAUAAAUCCAAUGAGAUUCUGACUGCCAUAAUCCAGGGGAUGAGGAAA | 0.18 ratio |
| CCUCAUGUUCAUUCAAAGGAUAAAAGCCAUAUUCCUUCUAGCCUAGAUAAUGUAAAUCACAAAAUUGUUCAUGAAUGUCAGGAACUUUCUUCACCUGUCAUUACUACAUCUCCUGCAUCA | 3.8 ratio |
